Measured values of several laboratories.
Protocols differ between the studies behind these lines. ± gives the spread as reported.

| SMILES | cell line | test | setting | how to read | measurement | result |
| --- | --- | --- | --- | --- | --- | --- |
| C#CCN(CC(=O)O[C@H]1[C@H](C)O[C@@H](O[C@H]2[C@H](N(C)C)[C@@H](O)[C@H](O[C@H]3[C@@H](CC=O)C[C@@H](C)[C@@H](O[C@H]4CC[C@H](N(C)C)[C@@H](C)O4)/C=C/C=C/C[C@@H](C)OC(=O)C[C@@H](O)[C@@H]3OC)O[C@@H]2C)C[C@@]1(C)O)Cc1ccc(C(F)(F)F)cc1 | GES-1 and HGC-27 | cell growth, CCK-8 | 72 h | relative to: IC50 GES-1 over HGC-27 | selectivity index | 3.88 |
| COc1cc(CNC(=O)C[C@H](C)CCC=C(C)C)ccc1OCc1cn(-c2ccccc2Cl)nn1 | A549/ATCC | SRB | 10 µM, 48 h | – | growth | 64.1% |
| O=C(/C=C(O)/C=C/c1cccs1)/C=C/c1cccs1 | EA.hy926 | DCFH-DA, normalised to SRB | 1 µM | relative to: untreated | intracellular ROS | 97.3 ± 11.3% |
| CCCCc1ccc(C(=O)O[C@H]2[C@H](C)O[C@@H](O[C@H]3[C@H](N(C)C)[C@@H](O)[C@H](O[C@H]4[C@@H](CC=O)C[C@@H](C)[C@@H](O[C@H]5CC[C@H](N(C)C)[C@@H](C)O5)/C=C/C=C/C[C@@H](C)OC(=O)C[C@@H](O)[C@@H]4OC)O[C@@H]3C)C[C@@]2(C)O)cc1 | GES-1 and HGC-27 | cell growth, CCK-8 | 72 h | relative to: IC50 GES-1 over HGC-27 | selectivity index | 1.66 |
| CN1CCCNC(=O)c2cccc(c2)C(=O)NCCCN(C)CCCNc2cccc3c2C(=O)c2cccc(c2C3=O)NCCC1 | cancer cell lines | cell proliferation | – | relative to: normal cells over HeLa | IC50 ratio | ~20 fold |
| O=C(c1ccc2ccccc2c1)c1cn(-c2ccccc2)nc1C1=Nn2c(Cc3nnc4n3N=C(c3nn(-c5ccccc5)cc3C(=O)c3ccc5ccccc5c3)CS4)nnc2SC1 | MCF7 cells | annexin V/PI flow cytometry | IC50, 48 h | – | late apoptotic cells | 23.5% |
| O=C1Nc2ccc(Cl)cc2C1=Cc1c(Cl)[nH]c2c1ccc1ccccc12 | ovarian cancer subpanel of NCI-60 | – | 48 h | – | TGI | 11.2 µM |
| CC(=O)NC1C(O)OC(CO)C(O)C1OC(C)C(=O)NC(C)C(=O)NC(CCC(=O)O)C(N)=O (stereo not shown) | human PBMCs | – | 10 µM, 24 h, with or without LPS | – | TNF-α secretion | increased |
| C[N+]1(CC(=O)OC2CCCCCCCCCCC2)CCCCC1 | PC-3 | cell viability, CellTiter Blue | 96 h | – | ED20 | 1.9 µM |
| COc1ccc([C@@H]2CC(=O)c3c(O)cc(O[C@@H]4O[C@H](CO[C@@H]5O[C@@H](C)[C@H](O)[C@@H](O)[C@H]5O)[C@@H](O)[C@H](O)[C@H]4O)cc3O2)cc1O | A549 | cell growth or viability, MTS | 100 µg/mL, 48 h | – | viability | 52.1% |
| CC(C)c1cccc(C(C)C)c1N1CCN(c2c(C(C)C)cccc2C(C)C)C1=[Se].[Cl][Ag] | LoVo MDR | MTT | – | relative to: LoVo MDR over LoVo | resistance factor | 0.4 |
| COc1ccc(/C=C/C2=[N+]3C(=C(CO)c4c(C)cc(/C=C/c5ccc(OC)cc5)n4[B-]3(C)C)C(C)=C2)cc1 | RPE-1 | resazurin | added: 645 nm light | relative to: dark over light IC50 | phototoxicity index | 70 ± 45 |
| CC(Cc1ccc(Cl)cc1)=C(c1ccc(Cl)cc1)c1ccc(OCCN(C)C)cc1 | 786-0 | cell growth or viability | – | – | GI50 | 4.55 µM |
| COc1cc(CNC(=O)C[C@H](C)CCC=C(C)C)ccc1OCc1cn(-c2ccc(C#N)cc2)nn1 | IGROV-1 ovarian cancer cells | SRB | 10 µM, 48 h | – | growth percent | 81.5% |
| COc1ccc([C@@H]2CC(=O)c3c(O)cc(O[C@@H]4O[C@H](CO[C@@H]5O[C@@H](C)[C@H](O)[C@@H](O)[C@H]5O)[C@@H](O[C@H]5O[C@H](CO)[C@@H](O)[C@H](O)[C@H]5O)[C@H](O)[C@H]4O)cc3O2)cc1O | A549 | trypan blue exclusion | 150 µg/mL, 48 h | – | cell count | 7920 ± 678 |
| CC(=O)N[C@H](C(=O)N[C@H](C(=O)N[C@@H](CCCNC(=N)N)C(=O)N1Cc2ccccc2C[C@H]1C(=O)N[C@@H](Cc1ccccc1)C(N)=O)C1CCCCC1)C(C)C | MBP-specific BC-3 T cells | Bio-Plex multiplex, item: RANTES | 200 µg/mL, 24 h, added: MBP87-99 antigen | – | cytokine level | 1120 ± 268 pg/mL |
| C=C1C(=O)OC2C1CCC1(C)CC1CCC1(C)OC21 (stereo not shown) | TEX | methylcellulose colony | 15 µM, 11 d | – | colony number | 0.6 ± 0.9 |
| C=C(CC)C(=O)c1ccc(OCC(=O)NCCNC(=O)COc2ccc(C(=O)C(=C)CC)c(Cl)c2Cl)c(Cl)c1Cl | CoC1/DDP | cell growth, CCK-8 | 72 h | – | IC10 | ~0.8 µM |
| CC(=O)c1c(C)c2cnc(Nc3ccc(N4CCNCC4)cn3)nc2n(C2CCCC2)c1=O | CHO cells | Western blot | concentration not given | – | ERK phosphorylation | no effect |
| COc1cc(CNC(=O)C[C@H](C)CCC=C(C)C)ccc1OCc1cn(-c2ccc(Cl)cc2Cl)nn1 | MOLT-4 leukaemia cells | SRB | 10 µM, 48 h | – | growth percent | 84% |
| CCN1/C(=C/C=C2\CCCC(/C=C/C3=[N+](CC)c4ccccc4C3(C)C)=C2NCCCCCCCCN2CCC(Nc3nc4ccccc4n3Cc3ccc(F)cc3)CC2)C(C)(C)c2ccccc21 | U87 | western blot, item: CDK2 | concentration not given, 24 h | – | protein level | decreased |
| COc1cc(CNC(=O)C[C@H](C)CCC=C(C)C)ccc1OCc1cn(-c2cccc(C(F)(F)F)c2)nn1 | 786-0 | SRB | 10 µM, 48 h | – | growth | 93% |
| CCC12CCc3c(c4ccccc4n3C)CCN(CC3OC31)C2 (stereo not shown) | BV-2 | ELISA, item: TNF-alpha, IL-6, IL-1beta, MCP-1 | concentration not given, 1 h pretreatment, added: LPS | – | cytokine secretion | decreased |
| COc1cc(CNC(=O)C[C@H](C)CCC=C(C)C)ccc1OCc1cn(-c2ccc(Cl)c(Cl)c2)nn1 | MOLT-4 leukaemia cells | SRB | 10 µM, 48 h | – | growth percent | 68.7% |
| CCOC(=O)c1c(-c2ccc(C)cc2)oc2ncccc12 | CRL8155 | cell growth or viability | 48 h | – | EC50 | > 50 µM |

| SMILES | cell line | test | setting | how to read | measurement | result |
| --- | --- | --- | --- | --- | --- | --- |
| CCC/C(=C\C1=C(OC)C(=O)c2ccccc2C1=O)C(=O)NOC | Pa03C cells | – | concentration not given, 6 h | – | NADPH/total NADP ratio | decreased |
| Cc1nn(-c2ccc(S(=O)(=O)N[C@@H](CO)CC(C)C)cc2)c2nn3nnnc3nc12 | PC-3 | DNA damage, alkaline comet | 1 µM, 24 h | – | tail DNA | 49.5 ± 4.28% |
| CN(C)c1cc2ccccc2c(N)n1 | LX-2 | qPCR | concentration not given, added: TGF-β1 5 ng/mL for 12 h | – | IFN-γ mRNA level | increased |
| COc1ccc(CC2COC(=O)C2Cc2ccc3c(c2)OCO3)cc1OC (mixture of isomers) | A2780cis | annexin V/7-AAD | 3.25 µM, 72 h | relative to: untreated | live cells | decreased |
| N=C(N)NCCC[C@@H]1NC(=O)[C@H](CCCCN)NC(=O)[C@@H](Cc2ccc(O)cc2)NC(=O)[C@H](CC(=O)O)NC(=O)CNC1=O | U87 | cell growth, MTT | 48 h | – | GI50 | 63 ± 2.5 µM |
| COc1cc(CNC(=O)C[C@H](C)CCC=C(C)C)ccc1OCc1cn(-c2ccccc2[N+](=O)[O-])nn1 | MOLT-4 leukaemia cells | SRB | 10 µM, 48 h | – | growth percent | 20.7% |
| CCCCCCCCCC[N]1C(=O)c2cccc[n+]2[Ir]1[Cl].Cc1c(C)c(C)[c-](C)c1C | SH-SY5Y | 4-hydroxynonenal reduction, HPLC | – | – | turnover number | 8 |
| CN(C)c1cccc2c(S(=O)(=O)NCCCCCC(=O)NO)cccc12 | PC-3 | propidium iodide flow cytometry | 1.54 µM | – | cells in G1 phase | 64.3% |
| Brc1ccc(Nc2nc(NN=Cc3c[nH]c4ccccc34)nc(-n3ccnc3)n2)cc1 | A549 and SK-BR-3 | autophagy, Western blot | 3 µM, 20 h | – | LC3-II level | increased |
| CC1(C)C=Cc2c(O)cc(/C=C/c3ccc(O)cc3O)cc2O1 | SAS | cell growth, MTT | – | relative to: IC50 HaCaT over IC50 SAS | selectivity ratio | 3.6 |
| O=Cc1c(O)ccc2ccccc12 | HUVEC | RNA sequencing, item: ULBP1 | 75 µM, 24 h | relative to: DMSO | log2 fold change | 3.51 |
| OC(CN1CCNCC1)Cn1c2ccc(Br)cc2c2cc(Br)ccc21 (stereo not shown) | wild-type MEF | apoptosis, inhibitor | 2 µM, 8 h, added: TNFα and cycloheximide | – | caspase-3/7 activity | inhibited |
| CC(C)(C)CCN1C[C@@H]2[C@@H](CNC(=O)c3cc(Cl)cc(Cl)c3)[C@@H]2C1 | human sperm | – | – | – | concentration abolishing motility | 30 µM |
| COc1ccc(-c2cc(C(F)(F)F)nc(SCC(=O)N(C)c3ccccc3)n2)cc1OC | NG108-15 | agonist, item: cAMP | 25 µM | relative to: basal | basal activity increase | ~20% |
| O=C(CCCCCCC(=O)Nc1ccccc1)NO | HEK293 | cell growth or viability, XTT | 72 h | – | GI50 | 0.08 µM |
| O=S(=O)(CCC(F)(F)F)Nc1ccc(Oc2ncccc2-c2ccnc(N[C@H]3CCCNC3)n2)c2ccccc12 | INS1 cells with Dox-inducible IRE1α | RNA-Seq | 20 µM, added: 5 ng/mL doxycycline | – | Txnip mRNA level | inhibited |
| COc1cc(CNC(=O)C[C@H](C)CCC=C(C)C)ccc1OCc1cn(-c2cccc([N+](=O)[O-])c2)nn1 | MCF7 breast cancer cells | SRB | 10 µM, 48 h | – | growth percent | 74.5% |
| CSCC[C@H](NC(=O)[C@@H](NC(=O)[C@H](CC(C)C)NC(=O)[C@H](CC(N)=O)NC(=O)[C@@H](NC(=O)[C@@H]1CCCN1C(=O)[C@H](CCCNC(=N)N)NC(=O)[C@@H](N)CCC(N)=O)C(C)C)[C@@H](C)O)C(=O)N[C@@H](CCCNC(=N)N)C(=O)N[C@@H](CCCNC(=N)N)C(=O)N[C@@H](CCCCN)C(=O)N[C@@H](CC(C)C)C(=O)N[C@@H](CCCNC(=N)N)C(=O)N[C@@H](CCCCN)C(=O)N[C@@H](Cc1c[nH]cn1)C(=O)N[C@@H](CC(N)=O)C(=O)N[C@H]1CSSC[C@@H](C(=O)N[C@@H](CCSC)C(=O)N2CCC[C@H]2C(=O)N[C@@H](CC(C)C)C(=O)N[C@@H](Cc2c[nH]cn2)C(=O)N[C@@H](CO)C(=O)N[C@@H](CCCNC(=N)N)C(=O)N[C@H](C(=O)N2CCC[C@H]2C(=O)N[C@@H](Cc2ccccc2)C(=O)N2CCC[C@H]2C(=O)O)C(C)C)NC(=O)[C@H](CCCNC(=N)N)NC(=O)[C@H](CCCNC(=N)N)NC(=O)[C@H](CCC(N)=O)NC(=O)[C@H](CC(C)C)NC1=O | HEK293 | β-arrestin2 recruitment, BRET | – | relative to: wild type receptor | BRET signal | decreased |
| C(=C/c1ccccc1)/c1ccccc1 | MOLT-3 | apoptosis, item: caspase-3 activity | 24 h, lowest dose with significant induction | relative to: vehicle | lowest effective concentration | 10 µM |
| CC/C=C\C/C=C\C/C=C\C/C=C\C/C=C\C/C=C\CCC(=O)Nc1ccn(C2OC(CO)C(O)C2(F)F)c(=O)n1 (stereo not shown) | 786-0 | cell growth or viability, SRB | – | – | GI50 | < 0.01 µM |
| FC(F)(F)c1ccnc(-c2cc(C(F)(F)F)ccn2)c1.FC(F)(F)c1ccnc(-c2cc(C(F)(F)F)ccn2)c1.[Cl-].[Cl-].[Ru+2].c1csc(-c2ccc(-c3ccc(-c4nc5c6cccnc6c6ncccc6c5[nH]4)s3)s2)c1 | SK-MEL-28 | cell viability | hypoxia 1% O2, added: green light | relative to: dark EC50 over light EC50 | mean phototherapeutic index | 270 |
| O=C(NCC1(c2nc(-c3ccccc3)cs2)CCOCC1)c1cccc(-c2noc(C(F)(F)F)n2)c1 | DHL6 | RNA sequencing | 3 µM, 12 h | – | downregulated genes | 30 genes |
| COc1cc(CNC(=O)C[C@H](C)CCC=C(C)C)ccc1OCc1cn(-c2ccc([N+](=O)[O-])cc2)nn1 | MOLT-4 leukaemia cells | SRB | 10 µM, 48 h | – | growth percent | 64.2% |
| Cc1c(C)c(C)[c-](C)c1C.O=C1c2cccc[n+]2[Ir]([Cl])[N]1CCCCCCCCCC[P+](c1ccccc1)(c1ccccc1)c1ccccc1.[Br-] | SH-SY5Y | DCFDA | concentration not given, added: MPP+ | relative to: untreated | ROS level | 3.4 fold |
